Experimental data collected from several papers.
Each numbered part is a random draw from the data of one study; scales do not carry over between parts. Positions count from the first letter of the parent shown.

Set 1 — technique: RNAcompete; molecule type: RNA; sample: in vitro; tested at: 20 nM; notes: 7-mer, probes averaged, single round; baseline: mean of 7-mers; reading: higher = stronger binding; endpoint: 7-mer Z-score
Target: PABPC1L2, full length, GST fusion (mouse, UniProt A0ABA7IW68)
Residues (chain): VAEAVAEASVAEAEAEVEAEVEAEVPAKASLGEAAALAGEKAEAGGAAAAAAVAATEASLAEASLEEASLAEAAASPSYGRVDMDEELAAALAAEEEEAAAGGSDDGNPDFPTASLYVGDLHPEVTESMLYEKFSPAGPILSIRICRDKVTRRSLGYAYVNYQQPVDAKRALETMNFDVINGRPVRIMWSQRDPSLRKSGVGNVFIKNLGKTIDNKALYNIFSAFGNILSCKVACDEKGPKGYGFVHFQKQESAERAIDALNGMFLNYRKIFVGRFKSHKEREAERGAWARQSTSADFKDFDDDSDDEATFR
GUUGAAU: -0.164
GACCCAA: 0.0243
CGGGGGG: 0.263
UAGCGAU: -0.13
CAUAGGG: 0.0587
AACCUGU: 0.00979
CCACUGC: -0.284
CAGCUCG: -0.324

Set 2 — target: Sox-I, HMG box (Salpingoeca helianthica); technique: Spec-seq; molecule type: double-stranded DNA, one strand shown; sample: in vitro; tested at: not given; notes: whole probe, mean of replicates; baseline: not given; reading: lower = stronger binding; endpoint: relative binding energy; all sequences stand within: GAGTCGTCTCGTCAGCAC … CCGTAGAGCACTCAGGTC
Construct (chain): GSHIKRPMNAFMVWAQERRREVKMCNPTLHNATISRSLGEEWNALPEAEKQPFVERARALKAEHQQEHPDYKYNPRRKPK
CATATTT: 0.61 ln ratio
AAATGTT: -0.578 ln ratio
CATGTGT: 0.817 ln ratio
TGACGTT: 0.744 ln ratio
GCGGGTT: 1.07 ln ratio
AACTGTT: -1.25 ln ratio
CATGTCC: 1.11 ln ratio
CATCCTC: 0.388 ln ratio

Set 3 — target: FOS, bZIP domain (human); technique: DHFR protein complementation; sample: yeast; baseline: wild-type JUN-FOS pair; reading: higher = stronger binding; endpoint: binding fitness
Notes: single substitutions, most at no-binding floor
Starting sequence: JUN, bZIP domain (human); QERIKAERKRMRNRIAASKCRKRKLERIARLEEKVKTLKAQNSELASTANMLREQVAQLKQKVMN; partner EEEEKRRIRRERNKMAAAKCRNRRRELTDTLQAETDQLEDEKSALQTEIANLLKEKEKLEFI
S43G: -0.056 natural log
E32M: -0.0748 natural log
A46Q: -0.0238 natural log
A49S: -0.741 natural log
N42L: -0.1 natural log
Q41F: -1.42 natural log
L31S: -0.631 natural log
A49E: -1.1 natural log

Other studies, line by line — starting sequence: viral docking peptide; TSVRRALFTGGSD
G11V — normalised enrichment score (CCNE2, cyclin fold, Cln2 fusion (human); yeast growth competition, sequencing; yeast; strong parent motif; baseline: not given, higher = stronger binding): 4.13

For quick reference, copied from above (set 1):
CGGGGGG: 0.263
UAGCGAU: -0.13
